Assay results from different studies.
Lines come from different studies, so protocols differ.

| SMILES | test | system | conditions | Tmax |
| --- | --- | --- | --- | --- |
| COc1nnc2ccc(N3CCC(c4ccc(OCCN5CCN(C)C(=O)[C@H]5C)cc4)CC3)nn12 | – | human, plasma | oral, 30 mg once daily, multiple dose, monotherapy | 1 h |
| COc1ncc(-c2nc3c(n2C(C)C)[C@H](c2ccc(Cl)cc2)N(c2cc(Cl)cn(C)c2=O)C3=O)c(OC)n1 | LC-MS/MS, noncompartmental | human, plasma | oral, 150 mg, C1D1, high-dose, median | 2 h |
| Cc1cc(-c2nnc(N)nc2-c2ccc(F)cc2)cc(Cl)n1 | – | human patients, plasma | oral, 75 mg capsule once daily, multiple doses, median | 4 h |
| Cc1noc(C)c1-c1cc(C(O)(c2ccccn2)c2ccccn2)c2nc(C3CC3)[nH]c2c1 | – | human patients, fasted, plasma | oral, 6 mg once daily, cycle 1 day 8 | 1.42 h |
| Cc1cn(C(=O)c2c(-c3c(Cl)cc(Cl)cc3Cl)noc2C(C)(C)F)c2cccc(/C=C/C(=O)O)c12 | – | human patients | 500 mg bid, cycle 1 day 1 | 3.97 h |
| Cc1cc(-c2nccc3c2ccn3CC(=O)Nc2ccc(-c3cnccn3)cn2)ccn1 | – | human, plasma | oral, 5 mg once daily, day 16, median | 1.25 h |
| Cc1ncnc2c1ccn2[C@@H]1C[C@H](Oc2cc(C(F)F)c(F)c3c2CNCC3)[C@@H](O)[C@H]1O | – | human | 4 mg twice daily, multiple dose, median | 0.5 h |
| Cn1ncnc1[C@H]1c2n[nH]c(=O)c3cc(F)cc(c23)N[C@@H]1c1ccc(F)cc1 | – | human patients, plasma | oral, 400 µg/m2 twice daily day 1, day 5, dose level DL2, median, together with: temozolomide 20 mg/m2 daily days 2-6 | 2 h |

A few entries again:
| SMILES | test | system | conditions | Tmax |
| --- | --- | --- | --- | --- |
| COc1nnc2ccc(N3CCC(c4ccc(OCCN5CCN(C)C(=O)[C@H]5C)cc4)CC3)nn12 | – | human, plasma | oral, 30 mg once daily, multiple dose, monotherapy | 1 h |
